Measured values collected from several papers.
Numbered parts are unrelated; each lists some results of a single study.

Set 1
Target: Histone acetyltransferase KAT6A, winged helix 2, GST fusion (KAT6A, Homo sapiens, UniProt Q92794, residues 85-181)
Method: protein binding microarray
Molecule type: double-stranded DNA, one strand shown
Matrix: in vitro
Tested at: not given
Notes: 8-mer, flanks averaged, mean of 2 arrays, mostly near background
Reference: not given
Reading: higher = stronger binding
Residues (chain): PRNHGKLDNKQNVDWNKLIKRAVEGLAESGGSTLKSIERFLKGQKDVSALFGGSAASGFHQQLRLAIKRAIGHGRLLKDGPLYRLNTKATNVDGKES
With `ACGCTGGG` the E-score was -0.0433.
For `ACCCAACA`, the E-score was -0.142.
The E-score of `CACTCTGG` is reported as 0.0688.
`CCGTTAGC` gave an E-score of -0.0212.

Set 2
Target: Prothrombin, mature alpha-thrombin (F2, Homo sapiens, UniProt P00734)
Method: aptamer microarray, sandwich
Molecule type: DNA with 2'F-ANA
Matrix: in vitro
Tested at: 200 nM
Notes: whole 15-mer aptamer, many near background
Added: Cy3 exosite-II aptamer, 400 nM
Reading: higher = stronger binding
Sequence: GGTTGGTGTGGTTGG
`2'F-ANA at 1 3 4 5 6 7 8 13 15`: “mean fluorescence intensity” 51.1 a.u.
`2'F-ANA at 2 3 6 9 10 11 13 14 15` — result for “mean fluorescence intensity”: 248 a.u.
Under “mean fluorescence intensity”, `2'F-ANA at 1 5 6 8 9 10 11 14` is recorded as 139 a.u.
`2'F-ANA at 4 5 6 7 9 12 14` — result for “mean fluorescence intensity”: 45.4 a.u.
`2'F-ANA at 1 4 7 8 10 11 12 13 15`: “mean fluorescence intensity” 54.9 a.u.

Set 3
Target: Sal-like protein 4, full length isoform B (SALL4, Homo sapiens, UniProt Q9UJQ4-2, residues 1-616)
Method: universal PBM
Molecule type: double-stranded DNA, one strand shown
Matrix: in vitro
Tested at: not given
Notes: 8-mer, flanks averaged, mean of replicates
Reading: higher = stronger binding
Target sequence (chain): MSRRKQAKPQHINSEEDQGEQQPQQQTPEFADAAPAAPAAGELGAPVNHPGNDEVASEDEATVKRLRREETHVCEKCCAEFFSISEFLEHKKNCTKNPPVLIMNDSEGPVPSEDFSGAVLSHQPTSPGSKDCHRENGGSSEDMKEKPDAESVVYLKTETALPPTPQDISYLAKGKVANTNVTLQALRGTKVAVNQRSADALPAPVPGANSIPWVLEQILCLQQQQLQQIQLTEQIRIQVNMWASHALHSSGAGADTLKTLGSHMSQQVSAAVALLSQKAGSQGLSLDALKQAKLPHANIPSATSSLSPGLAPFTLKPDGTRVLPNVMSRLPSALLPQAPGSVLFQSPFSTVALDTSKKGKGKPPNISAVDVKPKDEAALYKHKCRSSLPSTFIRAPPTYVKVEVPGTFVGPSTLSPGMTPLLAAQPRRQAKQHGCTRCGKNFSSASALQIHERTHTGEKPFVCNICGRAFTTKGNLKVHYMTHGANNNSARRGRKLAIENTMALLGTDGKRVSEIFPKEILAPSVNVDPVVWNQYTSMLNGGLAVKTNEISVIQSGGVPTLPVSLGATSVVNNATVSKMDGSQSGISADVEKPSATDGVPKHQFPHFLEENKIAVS
`CGAGGACA` has an E-score of -0.226.
`AGTGCCCG` gave an E-score of -0.219.
For `AACGGACC`, the E-score was -0.19.

Further values, each from its own experiment
With `PhoQ, residues 284 288 289 292 302 303 ASTSDA` the fold induction was 11.7 (PhoP, residues 12 14 15 18 19 LHSVW (Escherichia coli, UniProt P23836); Sort-seq, measured: YFP reporter; E. coli; PhoQ-PhoP variant library, added: 10 µM Mg2+; reference: high Mg2+ state, higher = stronger signaling).

Some of these lines once more (further values, each from its own experiment):
With `PhoQ, residues 284 288 289 292 302 303 ASTSDA` the fold induction was 11.7 (PhoP, residues 12 14 15 18 19 LHSVW (Escherichia coli, UniProt P23836); Sort-seq, measured: YFP reporter; E. coli; PhoQ-PhoP variant library, added: 10 µM Mg2+; reference: high Mg2+ state, higher = stronger signaling).
